Results of several laboratories.
Every numbered part comes from another study and shows a few of its results, in no order. Values joined by “and” are separate records of one study, mostly repeats; a detail may differ.
Chain of UniProt P46734 (whole entry, looked up): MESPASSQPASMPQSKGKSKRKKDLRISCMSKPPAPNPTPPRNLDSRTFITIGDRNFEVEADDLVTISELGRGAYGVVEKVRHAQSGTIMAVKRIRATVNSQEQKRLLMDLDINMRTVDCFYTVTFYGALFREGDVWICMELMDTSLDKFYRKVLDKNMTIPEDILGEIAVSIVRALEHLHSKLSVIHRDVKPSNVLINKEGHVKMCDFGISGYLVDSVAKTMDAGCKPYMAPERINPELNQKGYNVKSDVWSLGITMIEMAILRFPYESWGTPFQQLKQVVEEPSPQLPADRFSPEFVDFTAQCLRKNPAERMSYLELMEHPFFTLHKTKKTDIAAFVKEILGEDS
Chain of UniProt P29597 (whole entry, looked up): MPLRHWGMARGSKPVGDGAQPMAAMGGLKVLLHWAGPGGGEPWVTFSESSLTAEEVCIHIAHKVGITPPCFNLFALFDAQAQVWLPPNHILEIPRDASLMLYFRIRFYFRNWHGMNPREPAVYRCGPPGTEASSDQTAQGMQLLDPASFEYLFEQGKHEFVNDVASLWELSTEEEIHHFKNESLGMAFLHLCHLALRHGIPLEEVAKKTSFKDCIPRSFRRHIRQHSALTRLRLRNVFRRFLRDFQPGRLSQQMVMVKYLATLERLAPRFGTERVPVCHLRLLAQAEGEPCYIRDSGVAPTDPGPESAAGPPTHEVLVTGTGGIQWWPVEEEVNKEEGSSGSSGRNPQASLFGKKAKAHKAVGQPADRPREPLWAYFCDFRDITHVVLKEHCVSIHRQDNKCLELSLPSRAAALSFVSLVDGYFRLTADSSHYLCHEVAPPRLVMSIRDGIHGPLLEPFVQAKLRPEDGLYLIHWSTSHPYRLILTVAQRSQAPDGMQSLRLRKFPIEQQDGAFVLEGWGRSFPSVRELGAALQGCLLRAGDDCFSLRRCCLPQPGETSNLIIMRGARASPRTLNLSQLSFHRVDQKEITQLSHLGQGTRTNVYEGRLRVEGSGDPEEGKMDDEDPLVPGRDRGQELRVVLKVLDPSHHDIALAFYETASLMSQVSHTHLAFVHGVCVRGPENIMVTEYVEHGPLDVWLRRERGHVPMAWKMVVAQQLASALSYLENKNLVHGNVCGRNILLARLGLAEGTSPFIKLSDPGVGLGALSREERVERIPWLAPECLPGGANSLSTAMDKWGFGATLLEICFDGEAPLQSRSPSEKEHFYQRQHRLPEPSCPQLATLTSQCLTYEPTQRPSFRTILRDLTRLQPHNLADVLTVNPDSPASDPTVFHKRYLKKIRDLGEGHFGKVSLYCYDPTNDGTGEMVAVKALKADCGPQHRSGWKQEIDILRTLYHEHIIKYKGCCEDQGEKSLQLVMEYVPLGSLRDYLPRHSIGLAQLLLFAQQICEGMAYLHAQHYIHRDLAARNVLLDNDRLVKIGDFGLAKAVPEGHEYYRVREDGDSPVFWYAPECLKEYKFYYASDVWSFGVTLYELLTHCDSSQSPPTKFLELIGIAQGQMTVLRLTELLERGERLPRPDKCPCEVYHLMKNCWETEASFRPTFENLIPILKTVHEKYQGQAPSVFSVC
Chain of UniProt Q969V1 (whole entry, looked up): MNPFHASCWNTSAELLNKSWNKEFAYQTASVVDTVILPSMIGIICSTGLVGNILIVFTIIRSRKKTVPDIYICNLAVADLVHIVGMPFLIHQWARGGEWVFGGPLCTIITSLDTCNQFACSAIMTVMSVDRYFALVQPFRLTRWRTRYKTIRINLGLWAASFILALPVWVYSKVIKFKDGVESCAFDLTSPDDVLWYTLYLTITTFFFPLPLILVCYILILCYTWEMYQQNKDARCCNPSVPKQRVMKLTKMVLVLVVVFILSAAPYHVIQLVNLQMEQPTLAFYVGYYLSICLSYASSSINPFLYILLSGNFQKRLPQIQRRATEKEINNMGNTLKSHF
Chain of UniProt Q15835 (whole entry, looked up): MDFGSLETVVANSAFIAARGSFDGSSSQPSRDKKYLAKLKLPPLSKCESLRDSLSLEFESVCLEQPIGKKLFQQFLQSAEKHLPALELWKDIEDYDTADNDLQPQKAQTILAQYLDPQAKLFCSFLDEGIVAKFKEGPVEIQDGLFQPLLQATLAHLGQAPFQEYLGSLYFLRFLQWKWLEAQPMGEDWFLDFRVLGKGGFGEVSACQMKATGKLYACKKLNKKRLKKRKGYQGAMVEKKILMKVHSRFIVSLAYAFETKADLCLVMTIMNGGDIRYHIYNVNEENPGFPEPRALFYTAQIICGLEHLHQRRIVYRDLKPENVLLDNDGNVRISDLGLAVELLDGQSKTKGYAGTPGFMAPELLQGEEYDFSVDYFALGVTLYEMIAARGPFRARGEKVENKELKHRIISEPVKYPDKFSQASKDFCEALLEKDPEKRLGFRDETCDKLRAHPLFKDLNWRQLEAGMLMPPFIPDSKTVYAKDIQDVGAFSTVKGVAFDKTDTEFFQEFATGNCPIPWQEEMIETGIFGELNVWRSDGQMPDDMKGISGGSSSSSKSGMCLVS
Chain of UniProt P15056 (whole entry, unmodified, looked up): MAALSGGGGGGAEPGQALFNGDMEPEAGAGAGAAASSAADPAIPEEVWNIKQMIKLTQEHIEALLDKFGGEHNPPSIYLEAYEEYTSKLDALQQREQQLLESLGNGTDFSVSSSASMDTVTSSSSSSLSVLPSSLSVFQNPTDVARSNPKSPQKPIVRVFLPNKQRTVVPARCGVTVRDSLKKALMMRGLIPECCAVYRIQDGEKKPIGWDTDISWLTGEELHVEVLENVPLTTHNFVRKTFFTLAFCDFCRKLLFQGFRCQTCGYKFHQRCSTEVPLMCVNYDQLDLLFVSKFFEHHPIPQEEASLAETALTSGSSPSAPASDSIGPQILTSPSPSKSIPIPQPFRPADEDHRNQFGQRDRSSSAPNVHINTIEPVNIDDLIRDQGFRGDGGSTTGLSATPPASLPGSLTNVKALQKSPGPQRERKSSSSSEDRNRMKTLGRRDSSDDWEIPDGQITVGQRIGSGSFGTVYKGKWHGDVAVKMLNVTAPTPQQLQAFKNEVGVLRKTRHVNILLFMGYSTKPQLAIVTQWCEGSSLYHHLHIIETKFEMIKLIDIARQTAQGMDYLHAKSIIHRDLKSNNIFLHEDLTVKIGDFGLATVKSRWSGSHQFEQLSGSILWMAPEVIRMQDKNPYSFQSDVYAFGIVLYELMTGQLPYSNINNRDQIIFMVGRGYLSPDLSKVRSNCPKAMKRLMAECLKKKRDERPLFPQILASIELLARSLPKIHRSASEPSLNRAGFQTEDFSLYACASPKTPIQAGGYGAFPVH
Chain of UniProt P51813 (whole entry, looked up): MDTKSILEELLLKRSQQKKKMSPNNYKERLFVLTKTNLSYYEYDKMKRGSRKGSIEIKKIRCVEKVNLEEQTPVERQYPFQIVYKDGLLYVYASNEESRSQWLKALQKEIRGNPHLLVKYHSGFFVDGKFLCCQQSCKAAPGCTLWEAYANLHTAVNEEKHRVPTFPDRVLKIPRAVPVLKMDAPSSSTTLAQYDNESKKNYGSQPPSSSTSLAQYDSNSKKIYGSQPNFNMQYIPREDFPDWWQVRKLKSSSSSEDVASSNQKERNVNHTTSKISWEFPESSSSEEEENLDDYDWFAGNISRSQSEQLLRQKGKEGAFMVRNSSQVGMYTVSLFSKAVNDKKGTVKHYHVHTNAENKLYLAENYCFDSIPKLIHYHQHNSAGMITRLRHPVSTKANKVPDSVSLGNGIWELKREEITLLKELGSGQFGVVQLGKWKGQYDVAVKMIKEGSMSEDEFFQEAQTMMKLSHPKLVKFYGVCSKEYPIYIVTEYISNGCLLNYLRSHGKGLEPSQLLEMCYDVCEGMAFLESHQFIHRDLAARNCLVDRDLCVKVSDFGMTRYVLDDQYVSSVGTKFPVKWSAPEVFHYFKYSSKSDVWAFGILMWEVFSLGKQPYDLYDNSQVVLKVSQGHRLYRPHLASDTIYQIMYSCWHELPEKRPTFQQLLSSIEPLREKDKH
Chain of UniProt Q9Y2H1 (whole entry, looked up): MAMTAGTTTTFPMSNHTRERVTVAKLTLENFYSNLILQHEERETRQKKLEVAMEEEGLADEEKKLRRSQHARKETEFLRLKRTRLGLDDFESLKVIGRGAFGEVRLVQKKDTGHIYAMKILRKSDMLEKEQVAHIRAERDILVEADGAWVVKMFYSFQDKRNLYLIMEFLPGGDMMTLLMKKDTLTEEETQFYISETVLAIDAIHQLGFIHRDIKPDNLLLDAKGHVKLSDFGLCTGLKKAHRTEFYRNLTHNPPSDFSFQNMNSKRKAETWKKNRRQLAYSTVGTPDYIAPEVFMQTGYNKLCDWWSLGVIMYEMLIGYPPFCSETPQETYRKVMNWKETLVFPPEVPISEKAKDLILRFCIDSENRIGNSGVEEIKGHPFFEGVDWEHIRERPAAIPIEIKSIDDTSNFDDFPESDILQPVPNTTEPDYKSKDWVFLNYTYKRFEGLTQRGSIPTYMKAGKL

Set 1
SMILES: C[C@H](c1ccnc(Nc2nc3ccc(-c4cc(N(C)C)ncn4)cc3[nH]2)c1)N1CCN(C(=O)CC(F)(F)F)CC1
Technique: competition with immobilised ligand
Concentration: 0.1 µM
target | assay | remaining binding [%]
CLK2 (Homo sapiens, UniProt P49760) | cell-free assay | 65
PIK3CD (Homo sapiens, UniProt O00329) | cell-free assay | 100
Tyrosine-protein kinase ABL1, non-phosphorylated (ABL1, Homo sapiens, UniProt P00519, T315I) | cell-free assay | 100
Tyrosine-protein kinase JAK1, JH2 (JAK1, Homo sapiens, UniProt P23458) | cell-free assay | 100
STK38L (Homo sapiens, UniProt Q9Y2H1) | binding | 65
MAP2K3 (Homo sapiens, UniProt P46734) | cell-free assay | 97
MAPK6 (Homo sapiens, UniProt Q16659) | cell-free assay | 86
STK32A (Homo sapiens, UniProt Q8WU08) | cell-free assay | 100
ULK2 (Homo sapiens, UniProt Q8IYT8) | cell-free assay | 100
MKNK1 (Homo sapiens, UniProt Q9BUB5) | cell-free assay | 92
NEK4 (Homo sapiens, UniProt P51957) | cell-free assay | 100
Non-receptor tyrosine-protein kinase TYK2, JH2 (TYK2, Homo sapiens, UniProt P29597) | cell-free assay | 100
EPHA4 (Homo sapiens, UniProt P54764) | cell-free assay | 98
BRAF (Homo sapiens, UniProt P15056, V600E) | cell-free assay | 100
PHKG2 (Homo sapiens, UniProt P15735) | cell-free assay | 81
DDR2 (Homo sapiens, UniProt Q16832) | cell-free assay | 100
GRK1 (Homo sapiens, UniProt Q15835) | cell-free assay | 90
BMX (Homo sapiens, UniProt P51813) | cell-free assay | 100
Aurora kinase C (AURKC, Homo sapiens, UniProt Q9UQB9) | cell-free assay | 100
WEE1 (Homo sapiens, UniProt P30291) | cell-free assay | 96
GRK2 (Homo sapiens, UniProt P25098) | cell-free assay | 100
PRKCQ (Homo sapiens, UniProt Q04759) | cell-free assay | 100
PRKACA (Homo sapiens, UniProt P17612) | cell-free assay | 100

Set 2
Target: Calcium/calmodulin-dependent protein kinase type II subunit alpha (CAMK2A, Homo sapiens, UniProt Q9UQM7)
Chain of UniProt Q9UQM7 (whole entry, looked up): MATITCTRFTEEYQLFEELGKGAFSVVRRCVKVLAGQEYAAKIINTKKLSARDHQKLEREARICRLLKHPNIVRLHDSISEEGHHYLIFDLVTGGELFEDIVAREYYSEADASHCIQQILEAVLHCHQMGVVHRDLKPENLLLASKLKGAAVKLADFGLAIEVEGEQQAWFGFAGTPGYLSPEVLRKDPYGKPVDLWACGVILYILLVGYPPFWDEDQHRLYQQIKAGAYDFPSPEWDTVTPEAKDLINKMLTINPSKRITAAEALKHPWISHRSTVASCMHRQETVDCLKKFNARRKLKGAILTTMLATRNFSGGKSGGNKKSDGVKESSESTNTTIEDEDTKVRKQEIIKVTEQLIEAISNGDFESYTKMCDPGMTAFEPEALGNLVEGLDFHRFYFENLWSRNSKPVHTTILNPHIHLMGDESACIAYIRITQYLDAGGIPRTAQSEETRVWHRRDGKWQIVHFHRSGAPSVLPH
Observed: enzyme activity
Action: inhibitor
Concentration: 10 µM
SMILES | inhibition [%]
N[C@@H](CCC(=O)O)C(=O)N[C@@H](Cc1c[nH]c2ccccc12)C(=O)O | 4
Oc1ccc([C@H]2COc3cc(O)ccc3C2)cc1 | -57
C[C@H]1O[C@H](O[C@H]2[C@H](O)[C@@H](O)[C@@H](O[C@@H]([C@H](O)[C@@H](O)C=O)[C@H](O)CO)O[C@@H]2CO)[C@H](O)[C@@H](O)[C@@H]1N[C@H]1C=C(CO)[C@@H](O)[C@H](O)[C@H]1O | 59
OC[C@H]1OC[C@H](O)[C@@H](O)[C@@H]1O | -7
COc1ccc2cc3[n+](cc2c1O)CCc1cc2c(cc1-3)OCO2 | 45
C[C@H](CC[C@@H](O[C@@H]1O[C@H](CO[C@@H]2O[C@H](CO)[C@@H](O)[C@H](O)[C@H]2O)[C@@H](O)[C@H](O)[C@H]1O)C(C)(C)O)[C@H]1CC[C@@]2(C)[C@@H]3CC=C4[C@@H](CC[C@H](O[C@@H]5O[C@H](CO)[C@@H](O)[C@H](O)[C@H]5O)C4(C)C)[C@]3(C)[C@H](O)C[C@]12C | 19
COc1cc(O)ccc1/C=C/C(=O)c1ccc(O)cc1 | 14
COc1cc(OC)c2c(=O)cc(-c3cc(OC)c(OC)c(OC)c3)oc2c1 | 7
COc1ccc2c(=O)c(-c3ccc(O)cc3)coc2c1 | -15

Set 3
Structure (SMILES): NC(N)=NC(=O)c1nc(Cl)c(N2CCCCCC2)nc1N
Observed: β-arrestin recruitment
Action: agonist
Technique: PRESTO-Tango
Concentration: 10 µM
Relative to: untreated
target | fold over basal
NPBWR2 (Homo sapiens, UniProt P48146) | 0.93
PTGER1 (Homo sapiens, UniProt P34995) | 0.63
MCHR2 (Homo sapiens, UniProt Q969V1) | 0.81
HCRTR2 (Homo sapiens, UniProt O43614) | 1.67 fold
Adhesion G protein-coupled receptor A2 (ADGRA2, Homo sapiens, UniProt Q96PE1) | 0.82
PTGDR2 (Homo sapiens, UniProt Q9Y5Y4) | 1.15
Putative adhesion G protein-coupled receptor F2P (ADGRF2P, Homo sapiens, UniProt Q8IZF7) | 0.69
Secretin receptor (SCTR, Homo sapiens, UniProt P47872) | 0.72

Set 4
Structure (SMILES): CC(C)C[C@@H]1NC(=O)[C@@H](N(C)C(=O)[C@H](CC2CCC2)NC(=O)[C@@H]2C[C@@H](F)CN2C(=O)C2(C(F)(F)F)CC(F)(F)C2)CCCCNC(=O)C2(CC2)NC(=O)[C@H](Cc2cc(Cl)ccc2Cl)N(C)C1=O
Technique: flow cytometry
cell line | conditions | cleaved PARP positive cells
human CD34+ HSPC | 10 nM, 24 h | 0.96% and 0.59%
NCI-H446 | 2 nM, 3 days, together with: Mps1 inhibitor 3 nM | 7.09% and 7.52% and 6.82%
NCI-H446 | 20 nM, 72 h | 7.76% and 5.8% and 5.67%
NCI-H446 | 6 nM, 3 days, without Mps1 inhibitor | 17% and 20.1% and 19.3%
A549 | 200 nM, 72 h | 1.74% and 0.18% and 0.48%
human CD34+ HSPC | 1000 nM, 24 h | 0.9% and 1.84%
NCI-H446 | 200 nM, 3 days, together with: Mps1 inhibitor 3 nM | 20.4% and 18% and 21.8%

Excerpt of the above (set 4):
cell line | conditions | cleaved PARP positive cells
human CD34+ HSPC | 10 nM, 24 h | 0.96% and 0.59%
NCI-H446 | 2 nM, 3 days, together with: Mps1 inhibitor 3 nM | 7.09% and 7.52% and 6.82%
NCI-H446 | 20 nM, 72 h | 7.76% and 5.8% and 5.67%
NCI-H446 | 6 nM, 3 days, without Mps1 inhibitor | 17% and 20.1% and 19.3%
A549 | 200 nM, 72 h | 1.74% and 0.18% and 0.48%
human CD34+ HSPC | 1000 nM, 24 h | 0.9% and 1.84%
